Measured values gathered from unrelated publications.
Protocols differ between the studies behind these lines. ± gives the spread as reported. ≈ marks a conversion by molar mass, not a printed value.

The IC50 of `Cc1ccc(N2CC3CC(C2)N3)cc1C(=O)NC1(c2ccc3c4c(cccc24)C(=O)N3C)CC1` is reported as 0.0453 ± 0.0014 µM (SARS-CoV-2; viral replication; Vero C1008, XBB.1).
For `CCc1ccc(COP(=O)(O)Oc2c3c(c(OP(=O)(O)OCc4ccc(CC)cc4)c4c2C2CC4c4cc5c(cc42)C2CC5c4ccccc42)C2CC3c3cc4c(cc32)C2CC4c3ccccc32)cc1`, the IC50 was 6.9 µM (SARS-CoV-2; spike pseudoparticle entry; Caco-2).
With `Cc1cn2nc([C@@H]3CCCCN3C(=O)c3cc(Cl)ccc3NS(C)(=O)=O)cc2nc1N1CC[C@H](N)C1` the IC50 was 2.81 µM (SARS-CoV-2; viral replication; Vero E6, wild type).
`CC1(C)CC[C@]2(C(=O)O)CC[C@]3(C)C(=CC[C@@H]4[C@@]5(C)CC[C@H](O[C@@H]6O[C@H](CO)[C@@H](O)[C@H](O)[C@H]6O)C(C)(C)[C@@H]5CC[C@]43C)[C@@H]2C1` gave an IC50 of > 10 µM (SARS-CoV-2; pseudovirus cell entry, luciferase reporter; NCI-H1299 ACE2-expressing; 24 h).
With `CC[C@H](C)[C@H](NC(=O)[C@H](CCCCN)NC(=O)[C@H](CCCCN)NC(=O)[C@H](CC(C)C)NC(=O)[C@H](Cc1c[nH]c2ccccc12)NC(=O)CN)C(=O)NCC(=O)N[C@@H](CCCCN)C(=O)N[C@@H](CCCCN)C(=O)N[C@H](C(=O)N[C@@H](CCC(=O)O)C(=O)N[C@@H](CCCNC(=N)N)C(=O)N[C@H](C(=O)NCC(=O)N[C@@H](CCC(N)=O)C(=O)N[C@@H](Cc1c[nH]cn1)C(=O)N[C@H](C(=O)N[C@@H](CCCNC(=N)N)C(=O)N[C@@H](CC(=O)O)C(=O)N[C@@H](C)C(=O)N[C@H](C(=O)N[C@H](C(=O)N[C@@H](CCC(N)=O)C(=O)N[C@H](C(=O)N[C@H](C(=O)NCC(=O)N[C@H](C(=O)N[C@@H](C)C(=O)N[C@@H](CCC(N)=O)C(=O)N[C@@H](CCC(N)=O)C(=O)N[C@@H](C)C(=O)N[C@@H](C)C(=O)N[C@@H](CC(N)=O)C(=O)N[C@H](C(=O)N[C@@H](C)C(=O)N[C@@H](C)C(=O)N[C@H](C(=O)N[C@@H](CC(C)C)C(=O)N[C@@H](CCCCN)C(N)=O)[C@@H](C)O)C(C)C)C(C)C)[C@@H](C)CC)[C@@H](C)O)[C@@H](C)CC)[C@@H](C)O)[C@@H](C)O)C(C)C)[C@@H](C)CC` the MIC was 4 mg/L (≈ 0.952 µM) (Escherichia coli; broth microdilution; ATCC 25922, CAMHB).
The IC50 of `CC=CCCCCOP(=O)(O)Oc1c2c(c(OP(=O)(O)OCCCCC=CC)c3c1C1CC3c3cc4c(cc31)C1CC4c3ccccc31)C1CC2c2cc3c(cc21)C1CC3c2ccccc21` is reported as 14 µM (SARS-CoV-2; spike pseudoparticle entry; Caco-2).
Under “serum enzyme activity”, `CCCCCCCCCCCCCCCC(=O)N[C@@H](CCC(=O)NCCOCCOCCC(=O)NCCOCCOCCC(=O)NCCCC[C@H](NC(=O)[C@H](CC(=O)O)NC(=O)[C@H](CC(C)C)NC(=O)[C@H](Cc1ccc(O)cc1)NC(=O)[C@H](CCCCN)NC(=O)[C@H](CO)NC(=O)[C@H](Cc1ccc(O)cc1)NC(=O)[C@H](CC(=O)O)NC(=O)[C@H](CO)NC(=O)[C@@H](NC(=O)[C@H](Cc1ccccc1)NC(=O)[C@@H](NC(=O)CNC(=O)[C@H](CCC(N)=O)NC(=O)[C@@H](CO)NC(=O)[C@@H](N)Cc1c[nH]cn1)[C@@H](C)O)[C@@H](C)O)C(=O)N[C@@H](CCCNC(=N)N)C(=O)N[C@@H](CCCNC(=N)N)C(=O)N[C@@H](C)C(=O)N[C@@H](CCC(N)=O)C(=O)N[C@@H](CC(=O)O)C(=O)N[C@@H](Cc1ccccc1)C(=O)N[C@H](C(=O)N[C@@H](CCC(N)=O)C(=O)N[C@@H](Cc1c[nH]c2ccccc12)C(=O)N[C@@H](CC(C)C)C(=O)N[C@@H](CC(C)C)C(=O)N[C@@H](CC(N)=O)C(=O)N[C@H](C(=O)NCC(=O)NCC(=O)N1CCC[C@H]1C(=O)N[C@@H](CO)C(=O)N[C@@H](CO)C(=O)NCC(=O)N[C@@H](C)C(=O)N1CCC[C@H]1C(=O)N1CCC[C@H]1C(=O)N1CCC[C@H]1C(=O)N[C@@H](CO)C(N)=O)[C@@H](C)O)C(C)C)C(=O)O` is recorded as 121 ± 36.1 U/L (item: AST; Sprague-Dawley rat, female; subcutaneous, 100 µg/kg once daily, 14 days).
With `COc1ccc2nc3ccc(Cl)cc3c(Nc3ccc(O)c(CN4CCCC4)c3)c2c1` the IC50 was 0.48 µM (SARS-CoV-2; viral replication; U2OS, BetaCoV/France/IDF0372/2020).
`CC[C@H](C)[C@H](NC(=O)[C@H](C)NC(=O)[C@H](CCC(=O)O)NC(=O)[C@H](CCC(=O)O)NC(=O)[C@H](CC(C)C)NC(=O)[C@H](CCCCN)NC(=O)[C@H](CCCCN)NC(=O)[C@H](CCSC)NC(=O)[C@H](CCC(=O)O)NC(=O)[C@H](Cc1ccc(O)cc1)NC(=O)[C@H](CCC(=O)O)NC(=O)[C@H](CC(C)C)NC(=O)[C@H](CC(=O)O)NC(=O)[C@H](CC(C)C)NC(=O)[C@H](Cc1ccccc1)NC(=O)[C@@H](NC(=O)[C@@H](NC(=O)[C@@H](N)CC(N)=O)C(C)C)[C@@H](C)O)C(=O)N[C@@H](CCCCN)C(=O)N[C@@H](CCCCN)C(=O)N[C@@H](CC(C)C)C(=O)N[C@@H](CCC(=O)O)C(=O)N[C@@H](CCC(=O)O)C(=O)N[C@@H](CO)C(=O)N[C@@H](Cc1ccc(O)cc1)C(=O)N[C@H](C(=O)N[C@@H](CC(=O)O)C(=O)N[C@@H](CC(C)C)C(=O)N[C@@H](CCCCN)C(=O)N[C@@H](CCC(=O)O)C(=O)N[C@@H](CC(C)C)C(=O)NCC(=O)N[C@H](C(=O)N[C@@H](Cc1ccc(O)cc1)C(=O)N[C@@H](CCC(=O)O)C(=O)N[C@@H](Cc1ccc(O)cc1)C(=O)NCC(=O)N[C@@H](CO)C(=O)NCC(=O)N[C@@H](CSCC(=O)O[C@H]1CC[C@@]2(C)C(=CC[C@H]3[C@@H]4CC[C@H]([C@H](C)CCCC(C)C)[C@@]4(C)CC[C@@H]32)C1)C(N)=O)[C@@H](C)O)[C@@H](C)CC` gave an IC50 of 0.003 µM (SARS-CoV-2; viral replication).
For `CC[C@@]1(O)C[C@H](O[C@H]2C[C@H](N(C)C)[C@H](O[C@H]3C[C@H](O)[C@H](O[C@H]4CCC(=O)[C@H](C)O4)[C@H](C)O3)[C@H](C)O2)c2c(cc3c(c2O)C(=O)c2c(O)cccc2C3=O)[C@H]1C(=O)OC`, the IC50 was 0.056 µM (SARS-CoV-2; viral replication, RT-qPCR, item: viral RNA in supernatant; Calu-3, RIM-1).
`CN(C)Cc1cc(Nc2c3ccc(Cl)cc3nc3ccc(Cl)cc23)cc(CN(C)C)c1O` has an IC50 of 10.2 µM (SARS-CoV-2; viral replication; U2OS, BetaCoV/France/IDF0372/2020).
For `CC1OC(OC2C(OC(=O)C34CCC(C)(C)CC3C3=CCC5C6(C)CCC(OC7OC(CO)C(O)C(O)C7O)C(C)(C)C6CCC5(C)C3(C)CC4O)OCC(O)C2O)C(O)C(O)C1OC1OCC(O)C(OC2OCC(O)C(OC3OCC(O)C(O)C3O)C2O)C1O` (stereo not drawn), the IC50 was 2.01 µM (SARS-CoV-2; viral entry; A549-ACE2-TMPRSS2, NLuc reporter virus; 24 h).
The IC50 of `COc1cc2c(cc1O)CCN[C@]21CS[C@@H]2c3c(OC(C)=O)c(C)c4c(c3[C@H](COC1=O)N1[C@@H]2[C@H]2c3c(cc(C)c(OC)c3O)C[C@@H]([C@@H]1C#N)N2C)OCO4` is reported as 0.00184 µM (SARS-CoV-2; viral replication, RT-qPCR, item: viral RNA in supernatant; Calu-3, RIM-1).
With `COc1ccc2nc3cc(Cl)ccc3c(Nc3ccc(O)c(CN4CCCC4)c3)c2n1` the IC50 was 1.96 µM (SARS-CoV-2; viral replication; U2OS, BetaCoV/France/IDF0372/2020).
The EC50 of `Cc1cc(/C=C/C#N)cc(C)c1-n1cnc2cnc(Nc3ccc(C#N)cc3)nc21` is reported as 0.0006 ± 0.0001 µM (HIV-1; viral replication, single-round infection; RT mutant V106A).
The IC50 of `CCCCOP(=O)(O)Oc1c2c(c(OP(=O)(O)OCCCC)c3c1C1CC3c3cc4c(cc31)C1CC4c3ccccc31)C1CC2c2cc3c(cc21)C1CC3c2ccccc21` is reported as 14.2 µM (SARS-CoV-2; spike pseudoparticle entry; Caco-2).
`O=c1c2ccccc2[se]n1-c1ccncc1F` gave an IC50 of 8.23 µM (SARS-CoV-2).
The IC50 of `O=C(O)CCOP(=O)(O)Oc1c2c(c(OP(=O)(O)OCCC(=O)O)c3c1C1CC3c3cc4c(cc31)C1CC4c3ccccc31)C1CC2c2cc3c(cc21)C1CC3c2ccccc21` is reported as 29.6 µM (SARS-CoV-2; spike pseudoparticle entry; Caco-2).
For `Cc1oc2nc1C(=O)N[C@](C)(C(=O)NCCc1ccccc1)c1nc(c(C)o1)C(=O)N[C@](C)(C(=O)NCCc1ccccc1)c1nc(c(C)o1)C(=O)N[C@]2(C)C(=O)NCCc1ccccc1`, the IC50 was 24.7 µM (SARS-CoV-2; viral replication; Vero E6, NRC-03-nhCoV; 72 h).
`COc1ccc2nc3ccc(F)cc3c(Nc3cc(CN4CCCC4)c(O)c(CN4CCCC4)c3)c2c1` gave an IC50 of 1.84 µM (SARS-CoV-2; viral replication; U2OS, BetaCoV/France/IDF0372/2020).
With `C#CCCOP(=O)(O)Oc1c2c(c(OP(=O)(O)OCCC#C)c3c1C1CC3c3cc4c(cc31)C1CC4c3ccccc31)C1CC2c2cc3c(cc21)C1CC3c2ccccc21` the IC50 was 11.3 µM (SARS-CoV-2; pseudoparticle entry; Caco-2).
`COc1ccc2nc3cc(Cl)ccc3c(N3CCOCC3)c2c1` has an IC50 of > 50 µM (SARS-CoV-2; viral replication; U2OS, BetaCoV/France/IDF0372/2020).
For `Cc1cc(C)n(-c2nc(-c3ccccc3)cc(=O)n2CC(=O)Nc2cccc([N+](=O)[O-])c2)n1`, the IC50 was 32.1 µM (SARS-CoV-2; pseudovirus entry; HEK293T; 24 h).
`CC1(C)CC[C@]2(C(=O)O[C@@H]3OC[C@@H](O)[C@H](O[C@@H]4OC[C@@H](O)[C@H](O[C@@H]5OC[C@@H](O)[C@H](O[C@@H]6OC[C@@H](O)[C@H](O)[C@H]6O)[C@H]5O)[C@H]4O)[C@H]3O)CC[C@]3(C)C(=CC[C@@H]4[C@@]5(C)CC[C@H](O[C@@H]6O[C@H](CO)[C@@H](O)[C@H](O)[C@H]6O)C(C)(C)[C@@H]5CC[C@]43C)[C@@H]2C1` has an IC50 of 8.84 µM (SARS-CoV-2; pseudovirus cell entry, luciferase reporter; NCI-H1299 ACE2-expressing; 24 h).
For `CC(C)CC(=O)OC1C=CC=CC(=O)OC2C(C)CC3C2(O)C(O)C2(CO)OC2C2C4OC5(c6ccccc6)OC(C(C)C23O5)C4(O)C(C)(O)CC2CCC1C2C` (stereo not drawn), the IC50 was 0.0017 µM (SARS-CoV-2; viral replication; Vero E6).
The IC50 of `Cc1ccc(N2CC(N3CCC(C)(O)CC3)C2)cc1C(=O)NC1(c2ccc3c4c(cccc24)C(=O)N3C)CC1` is reported as 0.0407 ± 0.0105 µM (SARS-CoV-2; viral replication; Vero C1008, XBB.1).
For `CC1(C)CC[C@]2(C(=O)O[C@@H]3OC[C@@H](O)[C@H](O[C@@H]4OC[C@@H](O)[C@H](O)[C@H]4O)[C@H]3O)CC[C@]3(C)C(=CC[C@@H]4[C@@]5(C)CC[C@H](O[C@@H]6O[C@H](CO)[C@@H](O)[C@H](O)[C@H]6O)C(C)(C)[C@@H]5CC[C@]43C)[C@@H]2C1`, the IC50 was 7.59 µM (SARS-CoV-2; pseudovirus cell entry, luciferase reporter; NCI-H1299 ACE2-expressing; 24 h).
`CCOP(=O)(O)Oc1c2c(c(OP(=O)(O)OCC)c3c1C1CC3c3cc4c(cc31)C1CC4c3ccccc31)C1CC2c2cc3c(cc21)C1CC3c2ccccc21` has an IC50 of 29.5 µM (SARS-CoV-2; spike pseudoparticle entry; Caco-2).
`CCN(CC)CCCC(C)Nc1c2cc(OC)ccc2nc2ccc(C(F)(F)F)cc12` (stereo not drawn) has an IC50 of 1.81 µM (SARS-CoV-2; viral replication; U2OS, BetaCoV/France/IDF0372/2020).
With `C#CCCCOP(=O)(O)Oc1c2c(c(OP(=O)(O)OCCCC#C)c3c1C1CC3c3cc4c(cc31)C1CC4c3ccccc31)C1CC2c2cc3c(cc21)C1CC3c2ccccc21` the IC50 was 15.3 µM (SARS-CoV-2; spike pseudoparticle entry; Caco-2).
`CC1OC(OC2C(OC(=O)C34CCC(C)(C)CC3C3=CCC5C6(C)CCC(OC7OC(CO)C(O)C(O)C7O)C(C)(C)C6CCC5(C)C3(C)CC4O)OCC(O)C2O)C(O)C(O)C1OC1OCC(O)C(OC2OCC(O)C(O)C2O)C1O` (stereo not drawn) has an IC50 of 1.04 µM (SARS-CoV-2; viral infection; Vero, ancestral; 24 h).
With `CCCCCCCCOP(=O)(O)Oc1c2c(c(OP(=O)(O)OCCCCCCCC)c3c1C1CC3c3cc4c(cc31)C1CC4c3ccccc31)C1CC2c2cc3c(cc21)C1CC3c2ccccc21` the IC50 was 14.9 µM (SARS-CoV-2; spike pseudoparticle entry; Caco-2).
`CCc1nc(C(N)=O)c(Nc2ccc(N3CCC(N4CCN(C)CC4)CC3)c(OC)c2)nc1NC1CCOCC1` gave an IC50 of 0.225 µM (SARS-CoV-2; viral replication; Huh-7; 48 h).
